Measured values collected from several papers.
Each numbered part is a random draw from the data of one study; scales do not carry over between parts.

Sample 1 — method: protein-binding microarray; molecule type: double-stranded DNA, one strand shown; sample: in vitro; tested at: 2540 nM top; setting: 60-bp whole probe; added: salmon DNA 0.4 mg/ml; relative to: random background probes; reading: higher = stronger binding; constant ends, left off below: GCCTAGCAC … GTCTTGATTCGCTTGACGCTGCTG
Target: Interferon regulatory factor 3, full length, phosphomimetic (IRF3, Homo sapiens, UniProt Q14653, residues 1-427, S386D/S396D/S398D/S402D/T404D/S405D)
Chain of UniProt Q14653 (whole entry, unmodified, looked up): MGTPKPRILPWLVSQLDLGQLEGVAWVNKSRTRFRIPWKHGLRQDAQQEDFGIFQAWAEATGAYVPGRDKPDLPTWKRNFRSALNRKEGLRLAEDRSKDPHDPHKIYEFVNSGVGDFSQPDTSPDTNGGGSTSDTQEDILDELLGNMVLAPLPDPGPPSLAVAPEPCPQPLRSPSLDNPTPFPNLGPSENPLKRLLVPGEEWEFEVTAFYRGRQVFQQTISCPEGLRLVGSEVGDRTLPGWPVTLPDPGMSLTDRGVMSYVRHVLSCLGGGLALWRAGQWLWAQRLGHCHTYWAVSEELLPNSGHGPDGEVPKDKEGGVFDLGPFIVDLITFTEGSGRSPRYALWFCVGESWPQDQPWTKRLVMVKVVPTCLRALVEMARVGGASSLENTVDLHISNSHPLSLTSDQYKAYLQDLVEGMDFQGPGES
| Oligonucleotide | fitted relative affinity [z-score] |
| --- | --- |
| GGATGTGTCTTAAATAGGGCAGTGCTA | 0.193 |
| AGATTTTTTTTCCTAATTGAGTGCTAG | 2.6 |
| TTAGCACTGGGGACTGGGTTAGTGCTA | -1.13 |
| TCACTCCTCCAGGTTCTCACTGTGCTA | 0.0279 |
| GACGGTATCGGATTTCGGGACGTGCTA | 3.67 |
| TCAATTTTCTAAATTCCACTGTGCTAG | 1.09 |
| GGCGATCTCAGTTTCGAGACGTGCTAG | 2.08 |
| TTAGATATCCGGTTTCGATTAGTGCTA | 3.44 |
| TTAGGACTGGGGTTTCGGTAAGTGCTA | 1.5 |
| GACGAACTGTGTTTCGAGACGTGCTAG | 0.886 |
| GACGGACTGTGTTTCGGGACGTGCTAG | 1.04 |
| ACGAGTTTCTATTTTCTGAAGTGCTAG | 4.08 |
| TCATCAATCATTTTCGTACTGTGCTAG | 1.09 |
| GACGTACTGGGGTATCGGGACGTGCTA | -0.291 |
| CCATACTTCCCACTGGTCTTGTGCTAG | 0.871 |
| GACGCACTGAGTTTCGAGACGTGCTAG | 0.968 |
| TTAGGACTGGACTTTCTGTTAGTGCTA | 0.142 |
| GACGGACTACTTCTCCTGACGTGCTAG | 0.416 |
| GTTCTTTTCAGTCCCCTCTTGTGCTAG | 2.13 |
| TTAGATTTCAGAGTGGATTAGTGCTAG | 0.441 |

Sample 2 — method: universal PBM; molecule type: double-stranded DNA, one strand shown; sample: in vitro; tested at: 600 nM; reading: higher = stronger binding
Target: Sal-like protein 4, full length isoform A (SALL4, Homo sapiens, UniProt Q9UJQ4, residues 1-1053)
Chain of UniProt Q9UJQ4 (whole entry, looked up): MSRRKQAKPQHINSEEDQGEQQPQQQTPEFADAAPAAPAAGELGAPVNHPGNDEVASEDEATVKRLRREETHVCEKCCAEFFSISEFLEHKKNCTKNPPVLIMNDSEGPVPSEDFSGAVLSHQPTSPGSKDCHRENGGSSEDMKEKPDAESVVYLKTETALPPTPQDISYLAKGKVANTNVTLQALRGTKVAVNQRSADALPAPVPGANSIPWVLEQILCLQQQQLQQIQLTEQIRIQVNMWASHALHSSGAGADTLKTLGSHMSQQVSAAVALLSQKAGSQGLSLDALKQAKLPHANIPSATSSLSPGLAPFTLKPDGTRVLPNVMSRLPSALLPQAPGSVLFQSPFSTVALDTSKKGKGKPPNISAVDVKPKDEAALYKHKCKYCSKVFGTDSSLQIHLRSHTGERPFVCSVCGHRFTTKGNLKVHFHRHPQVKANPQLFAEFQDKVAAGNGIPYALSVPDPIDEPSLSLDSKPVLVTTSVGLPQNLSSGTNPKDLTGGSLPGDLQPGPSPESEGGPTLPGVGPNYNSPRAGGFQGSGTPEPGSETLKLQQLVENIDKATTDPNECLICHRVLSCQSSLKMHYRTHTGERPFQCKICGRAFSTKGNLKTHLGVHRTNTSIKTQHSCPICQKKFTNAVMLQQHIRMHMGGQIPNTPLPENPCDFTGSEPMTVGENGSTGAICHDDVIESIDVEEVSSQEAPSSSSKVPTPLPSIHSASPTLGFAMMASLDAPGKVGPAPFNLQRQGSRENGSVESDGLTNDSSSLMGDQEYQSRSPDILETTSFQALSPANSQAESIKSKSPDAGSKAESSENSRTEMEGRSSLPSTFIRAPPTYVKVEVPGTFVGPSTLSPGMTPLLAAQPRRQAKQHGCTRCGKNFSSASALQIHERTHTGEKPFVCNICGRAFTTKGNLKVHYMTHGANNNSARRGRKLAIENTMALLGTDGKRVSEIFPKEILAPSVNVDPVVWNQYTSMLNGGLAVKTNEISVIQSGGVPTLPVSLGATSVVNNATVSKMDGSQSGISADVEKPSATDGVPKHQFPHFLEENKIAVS
Setting: 8-mer, flanks averaged, mean of replicates
| Oligonucleotide | E-score |
| --- | --- |
| AAGAAACG | 0.0274 |
| GGAGTAGA | 0.0298 |
| CTCCCACC | -0.24 |
| AGCCCGAT | -0.096 |
| CCACGCTA | -0.104 |
| AGCATGAT | 0.128 |
| GATATTCA | 0.258 |
| TCGTGACA | 0.102 |
| ACCCTTTG | -0.168 |
| AGGGCCCC | -0.353 |
| GCCTAGTA | -0.0853 |
| AAGCTCTC | -0.0998 |
| AATGGGTA | 0.174 |
| CGGCCGTA | -0.219 |
| GAAACGGC | -0.117 |
| GGGCGGCA | -0.414 |
| GTTATCAA | 0.195 |

Sample 3 — method: RNA Bind-n-Seq; molecule type: RNA; sample: in vitro; tested at: 365 nM; relative to: no-protein control; reading: higher = stronger binding
Target: RNA binding protein fox-1 homolog 2, RRM domain, GST-SBP tag (RBFOX2, Homo sapiens, UniProt O43251-10, residues 100-194)
Setting: natural RNA segment, single round, ends assumed
Construct (chain): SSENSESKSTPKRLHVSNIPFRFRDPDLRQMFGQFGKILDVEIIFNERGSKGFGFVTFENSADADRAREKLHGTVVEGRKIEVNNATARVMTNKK
| Oligonucleotide | RBNS enrichment (R) |
| --- | --- |
| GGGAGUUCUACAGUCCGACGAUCAAAGUAUGCCAGGGGAGUAUGUAGCCCGGGGUGGCCCAAUGGGUGUGAGUAUGGGACAGCCGAGUUAUACCCAAGCCCAGAUGCCCCCCCAUCCUGCUCAGCUGCGUCAUUGGAAUUCUCGGGUGCCAA | 0.527 |
| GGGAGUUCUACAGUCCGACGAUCCAGUGGGGAUGCAGCUGUUGGACAGGUAUUGGGGGCAAGGUUGGUAGGGAGGACAGACUGUCACUUGCUGUUACAGGCACAGGUGAUUAAAAUGCUAAAUAUUGCAAAUUUGGAAUUCUCGGGUGCCAA | 1.16 |
| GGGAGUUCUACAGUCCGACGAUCAUGUGGUCCAGCUGUUUUAAUUGAGUGCUUUUAAAUGAAACCUGACUGCCAUCUUUCUUUUGUGACUUUCUUCCUUAAGCAACAGUAAACUUGCAGCAGAUCUGGUUUUUUGGAAUUCUCGGGUGCCAA | 0.684 |
| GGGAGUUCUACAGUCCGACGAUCCACUGGCUCUGGCGAUGAGUCAUUGUGCAAUUAGAAUCAUAUCUUAUGAUUUAUUUUCUGUCAUUAAAAAAAUGUACAUUAAAAAAAAAAGUCACCAGGUAGCUUCCAUGUGGAAUUCUCGGGUGCCAA | 0.493 |
| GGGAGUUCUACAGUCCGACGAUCGGCCCUCACUGAAAGAGCCCAUGCCUGCCUUCCUCCUUUCAUCGCCUCUCUAGAGCCCCCAAAGUCAGGCAGCAGCUGGAGUAGUUACAUUGUCAUCAUCUUUUUUUUUGUGGAAUUCUCGGGUGCCAA | 1.38 |
| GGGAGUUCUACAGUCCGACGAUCCUGGCAGGACUCACAGGAACAAACGAGGUCCCUGUUAGGGUUCUACUCGGGGGAGGGAGGGGGCUCCAUGAAAGGUACGUCUGAAAAGUUUCUGAAGAUUUUAUUAUCAUUGGAAUUCUCGGGUGCCAA | 0.333 |
| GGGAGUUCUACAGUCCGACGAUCGAGAGGUGGGACUGCCAUCUGGGCCUCGGUGGCUUGUUUCCAACCAAAUUAUCUGGGCUUCAGAAGCCAUCCCUUUGCUAUGCUUGACACCAAACUCAGUCACUCCACCUUGGAAUUCUCGGGUGCCAA | 0.491 |
| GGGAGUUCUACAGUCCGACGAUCGCUCUGUCUGUCCAAAGACGCUCCGGUCGAGGUCCCGCCUGCCCUGGGUGGAUACUUGAACCCCAGACGCCCCUCUGUGCUGCUGUGUCCGGAGGCGGCCUUCCCAUCUGUGGAAUUCUCGGGUGCCAA | 0.24 |
| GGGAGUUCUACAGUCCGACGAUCUUUUCCAAUUUAAAAUUUUGCUUUUUAUCCUGGCACUGGCAAAAAGAACUGUGAAAGUGAAAUUUUAUUCAGCCGACUGCCAGAGAAGUGGGAAUGGUAUAGGAUUGUCCUGGAAUUCUCGGGUGCCAA | 0.626 |
| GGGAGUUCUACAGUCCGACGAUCCCAUCCAGUGGGCCAGCUCCCAGACAGCCAUUCCCAGGUCAUCUUCUUUAAGACAGUGCUAGAGUAGAACACGGGGCCUGUGCAUAACAAACGCCCUACUUCUAAGCUCGUGGAAUUCUCGGGUGCCAA | 0.345 |
| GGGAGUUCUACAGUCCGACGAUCGUGGUACCAGCUGUGACUUUUCUAUUUCUCCUAGUUUUAGGUUGUUCAUGAAACUAGAAAUGUCAUCCUGCUUGAUUUUUCAUCAGCCAAGUUAAACCCCUGCUUUCUGUUGGAAUUCUCGGGUGCCAA | 0.341 |
| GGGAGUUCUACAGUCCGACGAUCCCCUCCUAUUGUAUUCACUUCUUCUAUUUUCUUAGAAUUCUUGCAACUAAUGAUUGUUCCCCUCCUUCUCCCACCACCAAGUUCUUUGUCCUUCCAACCUCCCGGAAAGGUGGAAUUCUCGGGUGCCAA | 1.05 |

Sample 4 — method: competition protein-binding microarray; molecule type: double-stranded DNA, one strand shown; sample: in vitro; tested at: 2 µM; added: Cbf1 competitor, 0.05 µM; reading: higher = stronger binding
Target: Phosphate system positive regulatory protein PHO4, full length, GST-tagged (PHO4, Saccharomyces cerevisiae, UniProt P07270, residues 1-312)
Setting: whole 60-bp probe, lowest competitor level
Residues (chain): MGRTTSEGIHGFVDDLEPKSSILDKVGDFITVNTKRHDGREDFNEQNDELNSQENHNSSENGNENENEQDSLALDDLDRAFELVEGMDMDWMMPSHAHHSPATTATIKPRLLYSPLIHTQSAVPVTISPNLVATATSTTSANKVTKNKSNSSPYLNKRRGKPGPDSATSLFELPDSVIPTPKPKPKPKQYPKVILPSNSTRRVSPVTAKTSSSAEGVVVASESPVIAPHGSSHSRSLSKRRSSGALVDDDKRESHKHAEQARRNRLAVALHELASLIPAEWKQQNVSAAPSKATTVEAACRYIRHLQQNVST
| Oligonucleotide | fluorescence intensity |
| --- | --- |
| CTAACGAAGGTTTGTCACACAACTTACAAGCCAAGTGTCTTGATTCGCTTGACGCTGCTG | 4000 a.u. |
| GCCAGTCGCCAATGCCACCTGATTCTCTGGTCGATTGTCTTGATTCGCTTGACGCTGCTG | 3090 a.u. |
| TGCGCAACAACTTGACCAGTGGGTGTATGTCTAGAAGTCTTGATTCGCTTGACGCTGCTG | 4320 a.u. |
| CGGGGTTAAGTTTGCAACGTGGGTGGCTTGCAGCAGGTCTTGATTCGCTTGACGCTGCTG | 13100 a.u. |
| ATGAATACACTTTGAAACGTGACGGTGCCATCGATGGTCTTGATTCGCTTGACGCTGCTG | 9540 a.u. |
| AAAGCGGTAATTTGAAGTGTGGGTGCAGATATCTATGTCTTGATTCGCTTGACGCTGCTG | 5320 a.u. |
| ATGCCCTATTAAAAATTCGTGGGACTATGATAATTTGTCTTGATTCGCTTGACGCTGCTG | 5330 a.u. |
| CTTTCCCGATCTTTTCACGTGTGCTTAGCACATTTGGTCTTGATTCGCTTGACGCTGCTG | 15200 a.u. |
| GTCTTGTCTCATTGGGAAGTGGGTGTCCCCACTTCAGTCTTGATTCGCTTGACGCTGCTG | 4350 a.u. |
| CTTCTGTAAATTTGTCACTATACTTGACGCGCCCCGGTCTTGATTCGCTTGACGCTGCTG | 3270 a.u. |
| TTTTTCATGTAAGGCCACATGATTCAGACTTACATCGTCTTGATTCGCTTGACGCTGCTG | 7600 a.u. |
| GCACCATTTGCCCATCACGTCCAACGGTAGTGGTCCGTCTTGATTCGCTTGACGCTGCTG | 3970 a.u. |
| CTAACGAAGGTTTGTCCTGTGGGTGACAAGCCAAGTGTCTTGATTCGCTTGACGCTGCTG | 3590 a.u. |
| TTGCTCACTTTCTAATACGTGCAAACCTTTACAAGCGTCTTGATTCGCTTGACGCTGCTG | 6140 a.u. |
| GAAAGACGGACATACCGCGTGCGGAGAACTTTTTCAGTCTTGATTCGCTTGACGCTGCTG | 11100 a.u. |
| TGCTGGCATTCTTATCTCGTGCTTTTATTAGTGGGCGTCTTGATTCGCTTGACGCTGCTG | 9680 a.u. |
| TTAAGAGATAATCCGCACGTGATGGAATTCATTCTGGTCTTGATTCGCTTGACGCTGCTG | 17500 a.u. |
| CTAACGAAGGTTTGTCGCGTGGGTGACAAGCCAAGTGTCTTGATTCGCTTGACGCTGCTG | 8480 a.u. |
| CCCAGCCCTGGGAGCCACGTGATCCCGGTCCTGGTTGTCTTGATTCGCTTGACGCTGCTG | 15400 a.u. |
| ACCGCGCGATTATTTAGTGTGACGGGAGCAAAGTAGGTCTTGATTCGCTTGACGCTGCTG | 5680 a.u. |
| TAATTTGCTGTCCATCACGTGATGGATAATTTTTTTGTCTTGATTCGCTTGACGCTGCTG | 15100 a.u. |

For quick reference, copied from above (sample 4):
| Oligonucleotide | fluorescence intensity |
| --- | --- |
| TGCGCAACAACTTGACCAGTGGGTGTATGTCTAGAAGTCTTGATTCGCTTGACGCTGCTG | 4320 a.u. |
| ACCGCGCGATTATTTAGTGTGACGGGAGCAAAGTAGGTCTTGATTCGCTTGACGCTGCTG | 5680 a.u. |
| CCCAGCCCTGGGAGCCACGTGATCCCGGTCCTGGTTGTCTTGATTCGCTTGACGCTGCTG | 15400 a.u. |
| AAAGCGGTAATTTGAAGTGTGGGTGCAGATATCTATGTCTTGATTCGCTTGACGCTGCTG | 5320 a.u. |
| GCCAGTCGCCAATGCCACCTGATTCTCTGGTCGATTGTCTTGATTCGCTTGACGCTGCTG | 3090 a.u. |
| GCACCATTTGCCCATCACGTCCAACGGTAGTGGTCCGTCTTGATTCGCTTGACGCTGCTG | 3970 a.u. |
| TTGCTCACTTTCTAATACGTGCAAACCTTTACAAGCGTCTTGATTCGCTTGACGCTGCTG | 6140 a.u. |
| CTAACGAAGGTTTGTCCTGTGGGTGACAAGCCAAGTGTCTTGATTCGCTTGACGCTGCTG | 3590 a.u. |
| CTAACGAAGGTTTGTCGCGTGGGTGACAAGCCAAGTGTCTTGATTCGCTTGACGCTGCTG | 8480 a.u. |
| ATGAATACACTTTGAAACGTGACGGTGCCATCGATGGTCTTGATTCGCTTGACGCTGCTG | 9540 a.u. |
